Measurements collected from several papers.
± marks the error that the study gave.
Polyprotein P1234 nsP2 protease domain: Polyprotein P1234, nsP2 protease domain (Chikungunya virus, UniProt Q8JUX6)
B1: VP35 (Ebola virus, UniProt Q05127); chain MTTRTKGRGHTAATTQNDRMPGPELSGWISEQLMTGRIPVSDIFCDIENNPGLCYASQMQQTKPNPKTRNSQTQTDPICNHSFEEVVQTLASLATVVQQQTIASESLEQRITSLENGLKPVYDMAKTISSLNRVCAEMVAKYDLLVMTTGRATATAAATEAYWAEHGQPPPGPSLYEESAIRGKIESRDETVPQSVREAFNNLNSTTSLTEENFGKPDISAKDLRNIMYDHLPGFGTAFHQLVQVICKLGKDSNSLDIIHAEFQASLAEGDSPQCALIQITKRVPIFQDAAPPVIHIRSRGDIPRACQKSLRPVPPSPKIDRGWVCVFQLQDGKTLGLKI
B2: FphE (Staphylococcus aureus, UniProt Q2FDS6); covalent boron inhibitor; chain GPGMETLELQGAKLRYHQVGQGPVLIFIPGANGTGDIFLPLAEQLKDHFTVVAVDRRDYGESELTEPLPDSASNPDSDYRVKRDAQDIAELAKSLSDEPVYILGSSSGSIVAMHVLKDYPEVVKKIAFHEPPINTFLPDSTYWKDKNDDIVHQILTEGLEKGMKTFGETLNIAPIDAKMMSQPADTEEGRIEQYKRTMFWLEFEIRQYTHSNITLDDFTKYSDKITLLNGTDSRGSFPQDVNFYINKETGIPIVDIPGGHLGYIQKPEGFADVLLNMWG
B3: FphE (Staphylococcus aureus, UniProt Q2FDS6); sequence looked up; chain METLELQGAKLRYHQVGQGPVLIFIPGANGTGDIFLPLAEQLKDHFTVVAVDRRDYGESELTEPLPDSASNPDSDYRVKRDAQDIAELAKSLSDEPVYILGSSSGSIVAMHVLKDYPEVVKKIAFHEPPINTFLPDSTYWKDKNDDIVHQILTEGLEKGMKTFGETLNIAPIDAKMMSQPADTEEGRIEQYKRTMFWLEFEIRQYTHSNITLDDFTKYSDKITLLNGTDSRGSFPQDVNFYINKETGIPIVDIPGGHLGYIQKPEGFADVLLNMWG
B4: coat protein (chlorotic cowpea mottle virus, UniProt P03601); sequence looked up; chain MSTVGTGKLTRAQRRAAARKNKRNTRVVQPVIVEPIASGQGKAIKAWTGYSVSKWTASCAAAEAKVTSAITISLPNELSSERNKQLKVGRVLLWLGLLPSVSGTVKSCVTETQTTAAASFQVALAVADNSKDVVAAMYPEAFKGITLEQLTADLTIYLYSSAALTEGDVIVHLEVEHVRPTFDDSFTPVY
B5: coat protein VLP 1-188 A31C/S137C (Physalis mottle virus, UniProt P36351); chain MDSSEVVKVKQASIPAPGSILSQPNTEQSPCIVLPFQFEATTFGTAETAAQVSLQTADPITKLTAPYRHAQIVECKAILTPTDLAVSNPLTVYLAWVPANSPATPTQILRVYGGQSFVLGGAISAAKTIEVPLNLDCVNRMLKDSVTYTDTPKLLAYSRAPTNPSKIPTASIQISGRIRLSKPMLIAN
B6: PA0254 (Pseudomonas aeruginosa, UniProt Q9I6N5); chain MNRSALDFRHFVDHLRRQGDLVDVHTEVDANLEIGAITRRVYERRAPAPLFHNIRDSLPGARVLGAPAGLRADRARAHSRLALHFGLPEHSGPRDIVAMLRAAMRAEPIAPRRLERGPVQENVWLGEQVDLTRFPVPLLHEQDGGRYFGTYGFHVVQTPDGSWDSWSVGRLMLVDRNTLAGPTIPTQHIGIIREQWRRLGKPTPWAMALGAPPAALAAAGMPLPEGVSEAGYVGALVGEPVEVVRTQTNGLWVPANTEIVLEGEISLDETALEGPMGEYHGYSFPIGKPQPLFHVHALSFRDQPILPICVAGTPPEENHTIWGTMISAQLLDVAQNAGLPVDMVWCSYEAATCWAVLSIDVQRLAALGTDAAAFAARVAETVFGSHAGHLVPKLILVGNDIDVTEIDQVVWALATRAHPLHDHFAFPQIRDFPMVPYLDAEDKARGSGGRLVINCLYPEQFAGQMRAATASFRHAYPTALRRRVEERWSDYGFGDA
B7: ORF31 ectodomain 72-742 GSAS substitution 491-495 (varicella-zoster virus, UniProt P09257); chain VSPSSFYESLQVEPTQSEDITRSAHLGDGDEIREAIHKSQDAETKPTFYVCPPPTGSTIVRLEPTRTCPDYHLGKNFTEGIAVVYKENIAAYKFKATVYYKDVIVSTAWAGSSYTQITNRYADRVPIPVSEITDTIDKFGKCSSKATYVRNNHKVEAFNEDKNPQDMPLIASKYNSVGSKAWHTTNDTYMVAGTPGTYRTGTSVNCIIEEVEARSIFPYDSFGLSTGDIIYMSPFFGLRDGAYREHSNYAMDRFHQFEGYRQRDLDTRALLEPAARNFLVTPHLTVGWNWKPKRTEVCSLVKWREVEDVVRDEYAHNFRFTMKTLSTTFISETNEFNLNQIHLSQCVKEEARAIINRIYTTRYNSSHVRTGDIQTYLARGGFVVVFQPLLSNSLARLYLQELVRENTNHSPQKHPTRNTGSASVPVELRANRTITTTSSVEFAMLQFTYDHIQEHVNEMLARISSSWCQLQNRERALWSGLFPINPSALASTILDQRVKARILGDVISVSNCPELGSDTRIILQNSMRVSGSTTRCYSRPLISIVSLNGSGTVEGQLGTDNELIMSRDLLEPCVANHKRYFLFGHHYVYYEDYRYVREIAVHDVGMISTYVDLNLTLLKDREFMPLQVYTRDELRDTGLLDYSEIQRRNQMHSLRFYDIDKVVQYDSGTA
B8: coat protein (Cowpea chlorotic mottle virus, UniProt P03601); chain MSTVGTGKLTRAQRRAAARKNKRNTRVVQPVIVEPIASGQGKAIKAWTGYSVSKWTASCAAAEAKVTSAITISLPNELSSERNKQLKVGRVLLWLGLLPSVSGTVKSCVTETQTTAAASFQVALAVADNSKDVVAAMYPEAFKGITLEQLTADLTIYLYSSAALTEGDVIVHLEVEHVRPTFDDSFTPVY
B9: rpoA 1-347 (Mycobacterium tuberculosis, UniProt P9WGZ1); chain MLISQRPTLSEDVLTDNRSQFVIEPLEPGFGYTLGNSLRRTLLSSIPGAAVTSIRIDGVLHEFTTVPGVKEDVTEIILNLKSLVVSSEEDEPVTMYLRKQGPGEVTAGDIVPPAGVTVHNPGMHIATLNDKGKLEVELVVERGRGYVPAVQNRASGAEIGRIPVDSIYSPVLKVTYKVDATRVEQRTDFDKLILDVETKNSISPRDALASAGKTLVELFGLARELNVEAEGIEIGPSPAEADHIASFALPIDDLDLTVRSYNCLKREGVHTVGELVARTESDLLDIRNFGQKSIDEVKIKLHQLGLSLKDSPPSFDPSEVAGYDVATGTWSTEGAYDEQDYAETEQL
B10: P protein (Measles virus, UniProt P03422); sequence looked up; chain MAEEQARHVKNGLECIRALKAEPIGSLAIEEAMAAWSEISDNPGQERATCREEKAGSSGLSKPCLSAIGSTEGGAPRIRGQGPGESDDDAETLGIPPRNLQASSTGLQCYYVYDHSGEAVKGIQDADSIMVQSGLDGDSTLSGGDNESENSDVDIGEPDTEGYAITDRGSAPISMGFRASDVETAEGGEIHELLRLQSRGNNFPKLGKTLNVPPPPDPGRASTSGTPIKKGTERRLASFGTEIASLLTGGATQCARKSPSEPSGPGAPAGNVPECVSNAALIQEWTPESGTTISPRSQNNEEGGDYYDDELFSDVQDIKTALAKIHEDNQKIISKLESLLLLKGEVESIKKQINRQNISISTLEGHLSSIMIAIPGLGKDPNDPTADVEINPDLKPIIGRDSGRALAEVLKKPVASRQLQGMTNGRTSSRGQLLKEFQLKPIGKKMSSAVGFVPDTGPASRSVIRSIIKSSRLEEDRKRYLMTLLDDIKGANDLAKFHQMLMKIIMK
B11: gp41 residues 1-194 (HIV-1, UniProt O70902); chain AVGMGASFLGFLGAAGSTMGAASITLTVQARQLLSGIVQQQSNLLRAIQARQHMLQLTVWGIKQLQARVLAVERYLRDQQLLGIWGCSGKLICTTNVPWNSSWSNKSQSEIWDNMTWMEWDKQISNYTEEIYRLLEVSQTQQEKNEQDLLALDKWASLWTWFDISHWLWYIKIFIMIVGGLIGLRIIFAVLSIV

CGUACGCGGAAUACUUCGAAA / UCGAAGTAUUCCGCGTACGUG (dsRNA; 5' phosphate, 3' overhangs, fluorescein-dT)
Kd (p19 1-172 (Carnation Italian ringspot virus, UniProt Q66104); EMSA): 0.17 ± 0.03 nM

Prnp fragment (mouse) (sequence not shown)
binding (itself; fluorescence titration): binds

MEASGVNYQNMNKQTT
inhibition (Polyprotein P1234 nsP2 protease domain; protease activity, FRET; peptide; 50 µM, 30 min, pH 7.5, 37 °C): no inhibition

B1 (VP35)
subunits per oligomer (itself; SEC-MALS): 4

B2 (FphE)
binding (itself; crystal structure): binds

C protein fragment (Measles virus) (sequence not shown)
subunits per oligomer (itself; cryo-EM structure): 2

B3 (FphE)
subunits per oligomer (itself; SEC-SAXS): 2

B4 (coat protein)
binding (itself; SEC): binds

B5
binding (itself; SEC): binds

YISPQYYGETWVTTIG
inhibition (Polyprotein P1234 nsP2 protease domain; protease activity, inhibitor, FRET; peptide; 50 µM, 30 min, pH 7.5): ~30%

p7 proteoliposomes, photo-leucine, photo-methionine substitutions (hepatitis C virus, UniProt P27958)
subunits per oligomer (itself; cross-linking; liposomes): 6

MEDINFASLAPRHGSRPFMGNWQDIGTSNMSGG
half-maximal binding pH (adenovirus type 5 hexon trimer; native mass spectrometry; peptide; 1 µM): 6.5 to 7

B6 (PA0254)
Km (O=C(O)c1ccc[nH]1; steady-state kinetics; pH 6, apparent): 4300 µM

B7
subunits per oligomer (itself; cryo-EM): 3

B8 (coat protein)
binding (itself; cryo-EM): binds

hsaC (Mycobacterium tuberculosis, UniProt P9WNW7)
Km (Cc1ccc(O)c(O)c1CC[C@@H]1C(=O)CC[C@]2(C)C(=O)CC[C@@H]12; steady-state kinetics; pH 7.5, 25 °C): 1.6 µM

VP39 (Autographa californica multiple nucleopolyhedrovirus, UniProt P17499)
subunits per oligomer (itself; cryo-EM): 2

BM2 transmembrane peptide (Influenza B virus)
pKa (solid-state NMR, measured: His19; VM+ membrane pellets; 243 K, membrane-bound tetramer, no drug, first protonation): 6.1

B9 (rpoA 1-347)
subunits per oligomer (itself; native MS): 2

B10 (P protein)
subunits per oligomer (itself; cryo-EM structure): 4

B11 (gp41 residues 1-194)
Kd (itself; analytical ultracentrifugation): 1000 nM

For quick reference, copied from above:
B10 (P protein)
subunits per oligomer (itself; cryo-EM structure): 4

C protein fragment (Measles virus) (sequence not shown)
subunits per oligomer (itself; cryo-EM structure): 2
